# Literature values that unrelated publications cite.
# Each line is one published result; not all experiments were run side by side. ± gives the spread as reported.
Molecule,target or system,assay,test system,setting,scale,measurement,result
CC(F)(F)c1cc(F)ccc1-c1sc2cc(O)ccc2c1Oc1ccc(/C=C/C(=O)O)cc1,,,dog,4 weeks,,highest non-severely toxic dose,100 mg/kg/day
CCCN1CCCC[C@H]1C(=O)Nc1c(C)cccc1C,,,"adult rat, sciatic nerve block model",,,LD50,56 ± 6 mg/kg
LPYPQPQL,"HLA class I histocompatibility antigen, B alpha chain, allele B*51:01 (Homo sapiens, UniProt P01889)",peptide-MHC binding,peptide,,,IC50,0.0323 µM
CN(C)C(=O)c1cc2cnc(Nc3ccc(N4CCNCC4)cn3)nc2n1C1CCCC1,,refers to: midazolam,human,"400 mg once daily, 8 days",relative to: midazolam alone,increase in Cmax,2.1 fold
O=C(/C=C/CCc1ccc(O)c(O)c1)CCc1ccc(O)c(O)c1,papain-like protease,"enzyme activity, inhibitor",,,,IC50,4.1 µM
O=C(c1cc(Cc2n[nH]c(=O)c3ccccc23)ccc1F)N1CCN(C(=O)C2CC2)CC1,,,"patient, ovarian cancer, BRCA wild-type","dose not given, capsule monotherapy",,response rate,24%
CC[C@H](C)[C@@H](C(=O)O[C@@H](CC(C)C)C(=O)N[C@@H](CC(C)C)C(=O)N[C@@H](C)/C=C/C(=O)N1C(=O)C=C(OC)[C@@H]1C)N(C)C,cathepsin B,"enzyme activity, inhibitor",,,,IC50,11.7 µM
O=S(=O)(CC1CS1)c1ccc(Oc2ccccc2)cc1 (racemic),,,testosterone-induced animal model,dose not given,,activity in neurogenesis model,active

# A few entries again:
Molecule,target or system,assay,test system,setting,scale,measurement,result
LPYPQPQL,"HLA class I histocompatibility antigen, B alpha chain, allele B*51:01 (Homo sapiens, UniProt P01889)",peptide-MHC binding,peptide,,,IC50,0.0323 µM
